{"data": "Published values from different studies", "note": "Lines come from different studies, so protocols differ. “And” joins repeats or separate records; there may be more than shown. ± marks the error that the study gave."}
{"SMILES": "CCCC(CCC)NC(=O)c1ccc2c(c1)OCO2", "cell line": "CHO-WBL", "conditions": "1.67 mg/mL, 3 h, with rat liver S9", "how to read": "reference: vehicle control", "quantity": "relative cell growth", "value": "72%"}
{"SMILES": "Cc1cnc(Nc2ccc(OCCN3CCCC3)cc2)nc1Nc1cccc(S(=O)(=O)NC(C)(C)C)c1", "cell line": "MDCK", "conditions": "1 µM, 90 min, pH 7.4 apical, 7.4 basolateral", "quantity": "Papp A to B", "value": "12.7 nm/s and 10 nm/s"}
{"SMILES": "CCOC(=O)c1cccc(Cn2ccc3ccc(-c4ccc5ccn(Cc6cccc(C(=O)O)c6)c5c4)cc32)c1", "cell line": "MAGI-CCR5 cells", "test": "cytotoxicity", "conditions": "48 h, 2% serum", "quantity": "TC50", "value": "24.5 µM"}
{"SMILES": "CC(C)NCC(O)COc1cccc2ccccc12 (centres unmarked)", "cell line": "MDCK-MDR1 cells", "conditions": "5 µM, pH 7.4", "quantity": "Papp A to B", "value": "558 nm/s"}
{"SMILES": "O=C(O)CCCOc1ccc(F)cc1-c1cc(-c2ccccc2C(F)(F)F)n(-c2ccccc2)n1", "cell line": "human iPSC-derived cardiomyocytes", "conditions": "0.2 µM", "quantity": "beat rate", "value": "45.5 ± 1.8 min⁻¹"}
{"SMILES": "Cc1ccc2ccc(C#N)c(O)c2n1", "cell line": "MDCK-II low-efflux (RRCK) cells", "conditions": "1.5 h, apical to basal", "quantity": "Papp", "value": "29 nm/s"}
{"SMILES": "CC(=O)Oc1ccccc1C(=O)O", "cell line": "human iPSC-derived cardiomyocytes", "conditions": "10 µM", "quantity": "beat rate", "value": "45.6 min⁻¹"}
{"SMILES": "COc1ccc(Nc2cnnc3cc(-c4cnc(N5CCN(C)CC5)nc4)ccc23)cc1Cl", "cell line": "B10R mouse macrophages", "test": "cytotoxicity", "quantity": "TC50", "value": "> 10 µM"}
{"SMILES": "CC(=O)Nc1cccc(-n2c(=O)n(C3CC3)c(=O)c3c(Nc4ccc(I)cc4F)n(C)c(=O)c(C)c32)c1", "cell line": "MeWo", "test": "resazurin", "conditions": "concentration not given, 72 h, unit not given", "how to read": "reference: DMSO", "quantity": "viability", "value": "0.8 and 0.496 and 0.657 and 0.943 and 0.528 and 0.926"}
{"SMILES": "CC(=O)Nc1ccc(O)cc1", "cell line": "MDCK", "conditions": "1 µM, 90 min, pH 6.5 apical, 7.4 basolateral, apical to basolateral", "quantity": "mass recovery", "value": "85 ± 5%"}
{"SMILES": "C/C=C(/C)C(=O)OC[C@H]1[C@@H](Cc2ccc(F)cc2)CO[C@@H]1c1ccc(F)cc1", "cell line": "HEK293/NF-κB-luc", "test": "CellTracker Green CMFDA", "conditions": "20 µM, 4.5 h, serum-free medium", "how to read": "reference: stimulated untreated cells", "quantity": "viability", "value": "86 ± 12%"}
{"SMILES": "CC(C)n1nccc1-c1ncccc1COc1cccc(O)c1C=O", "cell line": "MDCK", "conditions": "1 µM, 90 min, pH 7.4 apical, 7.4 basolateral, basolateral to apical", "quantity": "mass recovery", "value": "80 ± 13%"}
{"SMILES": "O=C(CS(=O)(=O)O)Nc1nc2ccc([N+](=O)[O-])cc2s1", "cell line": "MDCK-MDR1", "conditions": "MDR1 inhibited", "quantity": "Papp", "value": "0.11 nm/s"}
{"SMILES": "CCCS(=O)(=O)Oc1ccc(C=NNC(=O)c2nc3ccccc3s2)cc1", "cell line": "BJ-1 fibroblasts", "test": "MTT", "conditions": "100 µM, 48 h", "quantity": "cytotoxicity", "value": "52.6%"}
{"SMILES": "CC1(C)OB(c2cccc(CNS(=O)(=O)c3cc(C(=O)Nc4cc(F)c(F)c(F)c4)ccc3F)c2)OC1(C)C", "cell line": "HepAD38", "test": "CCK-8", "conditions": "6 d", "quantity": "CC50", "value": "6.06 ± 0.41 µM"}
{"SMILES": "CN1CCN(c2ccc(-c3ccc4nncc(Nc5ccc(OC(F)(F)F)cc5)c4c3)cc2)CC1", "cell line": "B10R mouse macrophages", "test": "cytotoxicity", "quantity": "TC50", "value": "3.2 µM"}
{"SMILES": "O=c1[nH]c(=O)c2c[nH]nc2[nH]1", "cell line": "HCT-8 infected with Cryptosporidium parvum", "test": "Hoechst nuclei count", "conditions": "1 mM, 24 h", "how to read": "reference: PBS", "quantity": "host cell number", "value": "0.965 ± 0.056"}
{"SMILES": "N[C@@H](Cc1cc(I)c(Oc2cc(I)c(O)c(I)c2)c(I)c1)C(=O)O", "cell line": "MDCK low-efflux", "quantity": "Papp (A to B)", "value": "12 nm/s"}
{"SMILES": "CCCS(=O)(=O)Oc1cc(C=NNC(=O)c2nc3ccccc3s2)ccc1OC", "cell line": "BJ-1 fibroblasts", "test": "MTT", "conditions": "100 µM, 48 h", "quantity": "cytotoxicity", "value": "35%"}
{"SMILES": "COC[C@@H](CC(C)C)NC(=O)c1ccc(C)c(C)c1", "cell line": "primary human lymphocytes", "conditions": "322 µg/mL, 4 h", "quantity": "mitotic index", "value": 5.1}
{"SMILES": "C/C=C(/C)C(=O)OC[C@H]1[C@@H](Cc2ccc(C(F)(F)F)cc2)CO[C@@H]1c1ccc(F)cc1", "cell line": "HEK293/NF-κB-luc", "test": "CellTracker Green CMFDA", "conditions": "20 µM, 4.5 h, serum-free medium", "how to read": "reference: stimulated untreated cells", "quantity": "viability", "value": "90 ± 22%"}
{"SMILES": "CC(C)C(=O)O", "cell line": "HCT-8 infected with Cryptosporidium parvum", "test": "Hoechst nuclei count", "conditions": "1 mM, 24 h", "how to read": "reference: PBS", "quantity": "host cell number", "value": "0.925 ± 0.113"}
{"SMILES": "O=C(O)c1ccc(NS(=O)(=O)c2ccc(Cl)c(Cl)c2)cc1", "cell line": "RRCK cells", "test": "passive permeability", "quantity": "apparent permeability", "value": "40 nm/s"}
{"SMILES": "COc1cc2ncnc(Nc3ccc(Oc4ccccc4)cc3C)c2cc1OC.O=C(O)C(F)(F)F", "cell line": "A-375 (BRAF V600E)", "conditions": "1 µM, 72 h", "quantity": "viability", "value": "1.03 fraction of control"}
{"SMILES": "COc1ccc(C(=O)NCc2cc(O)c(O)c(Br)c2)cc1", "cell line": "Vero-E6", "test": "CCK-8", "conditions": "24 h", "quantity": "CC50", "value": "> 800 µM"}
{"SMILES": "NCCCCNCCCN", "cell line": "HCT-8 infected with Cryptosporidium parvum", "test": "Hoechst nuclei count", "conditions": "1 mM, 24 h", "how to read": "reference: PBS", "quantity": "host cell number", "value": "0.982 ± 0.042"}
{"SMILES": "C=C1C(=O)O[C@@H]2[C@@H]3C4(C=C[C@@]3(C)C3(C4)C(=O)O[C@@H]4[C@H]5C(C)=CC(=O)C5=C(C)C[C@H](O)[C@H]43)[C@@](C)(OC(C)=O)CC[C@@H]12 (some centres unmarked)", "cell line": "AML12 mouse hepatocytes", "test": "MTT", "conditions": "24 h, 10% FBS", "quantity": "maximum safe concentration", "value": "40 µM"}
{"SMILES": "CC(O)C(=O)O (centres unmarked)", "cell line": "HCT-8 infected with Cryptosporidium parvum", "test": "Hoechst nuclei count", "conditions": "1 mM, 24 h", "how to read": "reference: PBS", "quantity": "host cell number", "value": "0.988 ± 0.077"}
{"SMILES": "CC(C)C[C@H](NC(=O)[C@H](CCCNC(=N)N)NC(=O)CNC(=O)CNC(=O)[C@H](CCCNC(=N)N)NC(=O)CNC(=O)CNC(=O)CNC(=O)c1ccc2c(c1)C(=O)OC21c2ccc(O)cc2Oc2cc(O)ccc21)C(=O)N[C@@H](CO)C(=O)N[C@@H](Cc1ccc(O)cc1)C(=O)N[C@@H](CO)C(=O)N[C@@H](CCCNC(=N)N)C(=O)N[C@@H](CCCNC(=N)N)C(=O)N[C@@H](CCCNC(=N)N)C(=O)N[C@@H](Cc1ccccc1)C(=O)N[C@@H](CO)C(=O)N[C@H](C(=O)N[C@@H](CO)C(=O)N[C@H](C(=O)NCC(=O)N[C@@H](CCCNC(=N)N)C(N)=O)[C@@H](C)O)[C@@H](C)O", "cell line": "hCMEC/D3 monolayers", "test": "BBB permeability, Transwell, item: CF-labelled compound", "test system": "EGM-2 medium", "conditions": "concentration not given, 3 h, apical to basal", "how to read": "reference: fluorescence added apically", "quantity": "transport ratio", "value": "14.6%"}
{"SMILES": "CCn1c(=O)c2c(nc(/C=C/c3ccc(OC)c(OC)c3)n2C)n(CC)c1=O", "cell line": "MDCK", "conditions": "1 µM, 90 min, pH 7.4 apical, 7.4 basolateral", "quantity": "Papp A to B", "value": "256 nm/s and 288 nm/s"}
{"SMILES": "CC(C)C[C@H](NC(=O)[C@H](CC(C)C)NC(=O)[C@H](CCCNC(=N)N)NC(=O)[C@H](CCCCN)NC(=O)[C@H](CCCNC(=N)N)NC(=O)[C@H](CC(C)C)NC(=O)[C@H](CCCCN)NC(=O)[C@H](CCCNC(=N)N)NC(=O)[C@H](CC(C)C)NC(=O)[C@H](CC(C)C)NC(=O)[C@H](CC(C)C)NC(=O)[C@H](CCCNC(=N)N)NC(=O)[C@H](CCCCN)NC(=O)[C@H](CCCNC(=N)N)NC(=O)[C@H](CC(C)C)NC(=O)[C@H](CCCCN)NC(=O)[C@H](CCCNC(=N)N)NC(=O)[C@H](CC(C)C)NC(=O)CNC(=O)CNC(=O)CNC(=O)c1ccc2c(c1)C(=O)OC21c2ccc(O)cc2Oc2cc(O)ccc21)C(N)=O", "cell line": "hCMEC/D3 monolayers", "test": "BBB permeability, Transwell, item: CF-labelled compound", "test system": "EGM-2 medium", "conditions": "concentration not given, 3 h, apical to basal", "how to read": "reference: fluorescence added apically", "quantity": "transport ratio", "value": "13.7%"}
{"SMILES": "Cc1noc(C)c1Cn1cc(N2C(=O)CN(Cc3cccc(O)c3)C2=O)cn1", "cell line": "human blood lymphocytes", "conditions": "494.3 µg/mL, 3 h, with 2% S9", "quantity": "aberrant cells with gaps", "value": "0%"}
{"note": "For quick reference, copied from above:"}
{"SMILES": "Cc1cnc(Nc2ccc(OCCN3CCCC3)cc2)nc1Nc1cccc(S(=O)(=O)NC(C)(C)C)c1", "cell line": "MDCK", "conditions": "1 µM, 90 min, pH 7.4 apical, 7.4 basolateral", "quantity": "Papp A to B", "value": "12.7 nm/s and 10 nm/s"}
{"SMILES": "CCOC(=O)c1cccc(Cn2ccc3ccc(-c4ccc5ccn(Cc6cccc(C(=O)O)c6)c5c4)cc32)c1", "cell line": "MAGI-CCR5 cells", "test": "cytotoxicity", "conditions": "48 h, 2% serum", "quantity": "TC50", "value": "24.5 µM"}
{"SMILES": "CC(C)NCC(O)COc1cccc2ccccc12 (centres unmarked)", "cell line": "MDCK-MDR1 cells", "conditions": "5 µM, pH 7.4", "quantity": "Papp A to B", "value": "558 nm/s"}
{"SMILES": "O=C(O)CCCOc1ccc(F)cc1-c1cc(-c2ccccc2C(F)(F)F)n(-c2ccccc2)n1", "cell line": "human iPSC-derived cardiomyocytes", "conditions": "0.2 µM", "quantity": "beat rate", "value": "45.5 ± 1.8 min⁻¹"}
